Assay results from different studies.
Lines come from different studies, so protocols differ. “And” joins repeats or separate records; there may be more than shown. ± gives the spread as reported.

Compound	cell line	assay	test system	conditions	scale	measurement	result
Cc1cccc(-c2[nH]c(CNc3ccccc3F)nc2-c2ccc3ncnn3c2)n1	RPMI-8226	flow cytometry, item: CD267	–	concentration not given	reference: comparator compound alone	surface marker level	185%
C[C@H](Nc1ccc2c(c1)OCCn1cc(N3C(=O)OC[C@H]3C(F)F)nc1-2)C(N)=O	TCC-SUP	cell growth, CellTiter-Glo	–	120 h	–	Hill coefficient	0.5
CCn1cc(-c2cc(Cn3ccoc3=N)cc3c2CCN([C@@H](C)c2cc(OC)ccn2)C3=O)c(C(F)(F)F)n1	HT	cell growth	–	120 h	–	EC50	0.00834 µM
O=C(C[C@@H](C(F)F)n1ccc(F)n1)N1CCC(O)(Cn2cnc3c(cnn3-c3ccc(F)cc3)c2=O)CC1	CHP-212 parental	PI flow cytometry	–	1 µM, 24 h	–	S phase cells	15.2%
CC1(C)CCC(CN2CCN(c3ccc(C(=O)NS(=O)(=O)c4ccc(NCC5CCOCC5)c([N+](=O)[O-])c4)c(Oc4cnc5[nH]ccc5c4)c3)CC2)=C(c2ccc(Cl)cc2)C1	K562	annexin V/PI flow cytometry, item: annexin V+/PI-	–	3.2 µM, 24 h	–	early apoptotic cells	2.9%
CCN(CC)c1ccc2c(c1)oc(=O)c1c(Cl)cc(=O)oc12	C127 LDR GFP reporter cells	silenced GFP reporter induction, activator, high-content imaging	–	retest, two-run mean	–	efficacy	85%
O=c1[nH]c(=O)c2cc(S(=O)(=O)Nc3ccc(N4CCCCCC4)cc3)ccc2[nH]1	adult rat ventricular myocytes	–	–	10 µM	reference: basal	cell length	96%
Cn1cc(Nc2nccc(-c3ccc4c(c3)CN(C3COC3)CC[C@H]4NC(=O)c3cn(C(C)(C)C)nn3)n2)cn1	mouse splenic B cells	item: α-Adrenergic signalling	–	30 mg/kg, IgD-activated in vivo	reference: vehicle, direction not given	pathway activation z-score	2.45
COc1ccc(-n2nc(C(C)=O)s/c2=N\N=C(/C)c2ccc(NC(=O)c3ccc(Cl)cc3)cc2)cc1	HepG2	–	–	0.078 µM	–	toxicity	16%
O=C(/C=C/C=C/C=C/C1CCCCC1)NC1=C[C@@](O)(/C=C/C=C/C=C/C(=O)NC2=C(O)CCC2=O)[C@@H]2O[C@@H]2C1=O	TE-10	cell growth, CellTiter-Glo	–	78 h	–	GI50	20.2 µM
Nc1ncnc2c1ncn2[C@@H]1O[C@H](CO)[C@@H](O)[C@H]1O	activated human T cells	–	–	10 µM, 72 h	higher = more viable cells	viability	79.4 a.u. and 80.5 a.u. and 74.6 a.u.
Cc1cc(C(C)(C)C)c(O)c(C(C)(C)C)c1	human iPSC-derived cardiomyocytes	MyBP-C/MYH ratio, plate-normalised SD score	–	concentration not given, primary screen	direction not given	activity score	6
CCCc1cc(=O)nc(SCC(=O)Nc2ccccc2)[nH]1	cells, COS-1, expressing proMMP-9	cell migration, 2D collagen dot migration	–	50 µM, 18 h	–	inhibition	12 ± 3%
CCCCN1C[C@H](O)[C@@H](O)[C@@H](O)[C@H]1CO	sample B patient fibroblasts	Gb3 level lowering, LC-MS/MS, item: Gb3 d18:1/24:0	–	216 h	–	IC50	13.5 µM
C/C=C/c1ccc(OCC(=O)OCC(=O)NC2CC2)c(OC)c1	C127 LDR GFP reporter cells	silenced GFP reporter induction, activator, high-content imaging	–	independent samples, two-run mean	–	maximum efficacy	63%
CN(C(=O)C(Cl)Cl)c1ccc(OC(=O)c2ccco2)cc1	human iPSC-derived cardiomyocytes	MyBP-C/MYH ratio, plate-normalised SD score	–	concentration not given, primary screen	direction not given	activity score	3.6
Cc1cc(C)n(-c2nc(-c3ccc(Cl)cc3)c3c(NC(=O)c4ccccc4)nnc-3[nH]2)n1	M14	SRB	–	10 µM, NCI60 single-dose screen	reference: untreated	cell growth	68.2%
C#CCOc1cc(C(=O)Nc2cc(OCCCN)c3ccccc3n2)nc(C(=O)Nc2cc(OCCCN)c3ccccc3n2)c1	U2OS	cell viability, CellTiter-Glo	–	72 h	reference: IC50 U2OS over WI-38	selectivity ratio	1.5
CCn1cc(-c2cc(Cn3ccnc3)cc3c2CCN([C@H](c2cc(OC)ccn2)C2CC2)C3=O)c(C(F)(F)F)n1	COLO 320	cell growth, inhibitor	–	120 h	–	EC50	1.5 µM
C=CCn1c(=O)c2cnc(Nc3ccc(N4CCN(C)CC4)cc3)nc2n1-c1ccc2c(n1)[C@@](O)(CC)CC2	Kuramochi	flow cytometry, item: pHH3+ γH2AX-	–	concentration not given	–	mitotic γH2AX-negative G2/M cells	3.8%
Cc1cc(NC(=O)C2CCCN(S(=O)(=O)c3cccc4nonc34)C2)ccc1Br (centres unmarked)	C127 LDR GFP reporter cells	silenced GFP reporter induction, activator, high-content imaging	–	retest, two-run mean	–	efficacy	32%

Compound	cell line	assay	test system	conditions	scale	measurement	result
COc1cc(/C=C/C(=O)N2CCC=CC2=O)cc(OC)c1OC	MDA-MB-468	quantitative RT-PCR, item: Skp1	–	30 µM, 8 h	reference: untreated cells	mRNA level	106 ± 7.2%
CN1CCN(c2ccnc(C(=O)N3CCC[C@H](C(=O)Nc4cccc(-c5ccc6c(c5)C(=O)NC6)c4)C3)c2)CC1	U2OS	–	–	50 µM, with: ionizing radiation	reference: irradiated control	53BP1 foci formation reduction	~3 fold
Cc1cc(Nc2ncc(Cl)c(Nc3ccccc3S(=O)(=O)C(C)C)n2)c(OC(C)C)cc1C1CCNCC1	CLB-GE	phosphoproteomics LC-MS/MS, item: PTPN11 phosphorylation	–	200 nM, 60 min	reference: untreated	log2 fold change	-2.25
CC(C)NCC(O)c1ccc(O)c(O)c1 (centres unmarked)	mouse ventricular cardiomyocytes	–	–	dose not given, 0.227 s	–	sarcomere length	1.79 µm
CCN(CC)CCNC(=O)c1cc(Br)c(N)cc1OC	human iPSC-derived cardiomyocytes	MyBP-C/MYH ratio, plate-normalised SD score	–	concentration not given, primary screen	direction not given	activity score	3.7
C[C@H](NC(=O)C(=O)Nc1ccccc1C(C)(C)C)C(=O)N[C@@H](CC(=O)O)C(=O)COc1c(F)c(F)cc(F)c1F	THP-1 cells, LPS-primed	pyroptosis, LDH release	–	25 µM, LPS 1 µg/mL, 4 h, with: nigericin 5 µM, 2 h	–	cell lysis	41.9%
O=C(O)[C@@H]1CCC(O)=N1	human iPSC-derived cardiomyocytes	MyBP-C/MYH ratio, plate-normalised SD score	–	concentration not given, primary screen	direction not given	activity score	3.2
C[C@H](CCC(=O)O)[C@H]1CC[C@H]2[C@@H]3CC[C@@H]4C[C@H](O)CC[C@]4(C)[C@H]3C[C@H](O)[C@]12C	HIEC	–	–	concentration not given, with: lithocholic acid	reference: lithocholic acid alone	P-gp expression	decreased
O[C@H]1[C@H]2c3cc4c(cc3CN3CCC(=C[C@@H]1O)[C@H]23)OCO4	C127 LDR GFP reporter cells	silenced GFP reporter induction, activator, high-content imaging	–	retest, two-run mean	–	efficacy	66%
Cc1cc2c(cc1N1C(=O)c3cccc4c(CCCO)ccc(c34)C1=O)n(C)c(=O)n2C (racemic)	5637	cell growth, alamarBlue	urinary bladder	–	–	GI50	7.98 µM
COc1cnc2cccc(N3CCc4c(cc(Cn5ccnc5C)cc4-c4cn(C)nc4C(F)(F)F)C3=O)c2c1	KYM1	cell growth	–	120 h	–	EC50	4.22 µM
C=C1C(=O)O[C@@H]2[C@@H]3C4(C=C[C@@]3(C)C3(C4)C(=O)O[C@@H]4[C@H]5C(C)=CC(=O)C5=C(C)C[C@H](O)[C@H]43)[C@@](C)(OC(C)=O)CC[C@@H]12 (some centres unmarked)	AML12 mouse hepatocytes	lipid accumulation, Nile Red staining	–	maximum safe concentration, 24 h, with: palmitic acid/oleic acid	–	maximum inhibition	32.2 ± 2.58%
O=c1[nH]nc(OCCCc2ccc(Cl)cc2)c(NCc2cccnc2)c1Br	HEK293T	RNA-seq, item: HSP90AA1 mRNA	–	10 µM, 6 h	reference: vehicle	log2 fold change	-0.145
CC(=O)[C@H]1CC[C@H]2[C@@H]3CCC4=CC(=O)CC[C@]4(C)[C@H]3CC[C@]12C	human iPSC-derived cardiomyocytes	MyBP-C/MYH ratio, plate-normalised SD score	–	concentration not given, primary screen	direction not given	activity score	-3.6
c1ccc2[nH]ccc2c1	HCT-8	RNA-seq, item: NAV3	–	concentration not given	–	mRNA level, LS mean	0.9 counts per million
Nc1cccc2c1C(=O)N(C1CCC(=O)NC1=O)C2=O (centres unmarked)	bone marrow CD138+ myeloma cells	XTT	–	0.4 µM, phenol red-free RPMI	–	viability	94%
Fc1cccc(F)c1-c1c(Cl)nc(Cl)n1-c1ccccc1Cl	QBI293	ELISA, item: acetylated alpha-tubulin	–	10 µM	reference: untreated	fold increase	3.75
Clc1ccc(C2(c3ccc(-c4cn[nH]c4)cc3)CCNCC2)cc1	primary CLL cells	flow cytometry	human	0.01 µM, 24 h	reference: DMSO, higher = more protein	Mcl-1 MFI	1210 a.u.
CSc1cc(Oc2ccnc3[nH]c(=O)cnc23)ccc1NC(=O)Nc1cc(C(C)(C)C)nn1-c1ccccc1	patient-derived B cell clone line	reverse phase protein array	human	1 µM, 4 h	reference: DMSO	phosphorylated STAT5 level	0.71
C=CC(=O)N1[C@@H](c2ccc3c(c2)OCO3)c2[nH]c3ccccc3c2C[C@H]1C(=O)NC	rat DRG neurons	–	–	0.04115 µM, 48 h, with: vincristine 40 nM	–	mean neuron degeneration	78.9%

Excerpt of the above:
Compound	cell line	assay	test system	conditions	scale	measurement	result
C[C@H](NC(=O)C(=O)Nc1ccccc1C(C)(C)C)C(=O)N[C@@H](CC(=O)O)C(=O)COc1c(F)c(F)cc(F)c1F	THP-1 cells, LPS-primed	pyroptosis, LDH release	–	25 µM, LPS 1 µg/mL, 4 h, with: nigericin 5 µM, 2 h	–	cell lysis	41.9%
O=C(O)[C@@H]1CCC(O)=N1	human iPSC-derived cardiomyocytes	MyBP-C/MYH ratio, plate-normalised SD score	–	concentration not given, primary screen	direction not given	activity score	3.2
C[C@H](CCC(=O)O)[C@H]1CC[C@H]2[C@@H]3CC[C@@H]4C[C@H](O)CC[C@]4(C)[C@H]3C[C@H](O)[C@]12C	HIEC	–	–	concentration not given, with: lithocholic acid	reference: lithocholic acid alone	P-gp expression	decreased
O[C@H]1[C@H]2c3cc4c(cc3CN3CCC(=C[C@@H]1O)[C@H]23)OCO4	C127 LDR GFP reporter cells	silenced GFP reporter induction, activator, high-content imaging	–	retest, two-run mean	–	efficacy	66%
Cc1cc2c(cc1N1C(=O)c3cccc4c(CCCO)ccc(c34)C1=O)n(C)c(=O)n2C (racemic)	5637	cell growth, alamarBlue	urinary bladder	–	–	GI50	7.98 µM
